Results collected from several papers.
± gives the spread as reported.

The chains behind the UniProt entries cited, without tags or fusion partners. Residues count along the entry.
UniProt P28074, whole entry, looked up: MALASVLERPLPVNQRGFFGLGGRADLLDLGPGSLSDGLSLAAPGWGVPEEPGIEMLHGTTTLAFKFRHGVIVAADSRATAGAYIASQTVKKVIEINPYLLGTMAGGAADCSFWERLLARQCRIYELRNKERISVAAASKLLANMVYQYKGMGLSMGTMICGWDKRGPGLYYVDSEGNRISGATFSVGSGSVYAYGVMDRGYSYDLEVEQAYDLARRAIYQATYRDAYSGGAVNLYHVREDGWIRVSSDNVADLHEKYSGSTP
UniProt P06276, whole entry, looked up: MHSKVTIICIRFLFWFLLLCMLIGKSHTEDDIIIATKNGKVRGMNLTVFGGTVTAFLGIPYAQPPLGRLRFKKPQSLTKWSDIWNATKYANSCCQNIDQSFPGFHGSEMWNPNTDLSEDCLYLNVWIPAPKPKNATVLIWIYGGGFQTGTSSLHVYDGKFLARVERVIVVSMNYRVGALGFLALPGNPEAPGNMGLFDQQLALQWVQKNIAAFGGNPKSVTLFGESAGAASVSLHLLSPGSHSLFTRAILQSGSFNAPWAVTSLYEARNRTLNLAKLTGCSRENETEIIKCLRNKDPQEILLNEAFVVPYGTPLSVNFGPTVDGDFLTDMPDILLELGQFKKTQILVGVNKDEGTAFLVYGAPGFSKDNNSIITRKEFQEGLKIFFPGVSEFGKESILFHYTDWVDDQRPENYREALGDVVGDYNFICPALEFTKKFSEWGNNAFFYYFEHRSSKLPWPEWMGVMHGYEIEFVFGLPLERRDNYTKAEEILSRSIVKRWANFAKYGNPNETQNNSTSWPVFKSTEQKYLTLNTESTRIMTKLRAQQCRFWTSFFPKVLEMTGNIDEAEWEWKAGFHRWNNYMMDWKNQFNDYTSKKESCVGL
UniProt Q62645, whole entry, looked up: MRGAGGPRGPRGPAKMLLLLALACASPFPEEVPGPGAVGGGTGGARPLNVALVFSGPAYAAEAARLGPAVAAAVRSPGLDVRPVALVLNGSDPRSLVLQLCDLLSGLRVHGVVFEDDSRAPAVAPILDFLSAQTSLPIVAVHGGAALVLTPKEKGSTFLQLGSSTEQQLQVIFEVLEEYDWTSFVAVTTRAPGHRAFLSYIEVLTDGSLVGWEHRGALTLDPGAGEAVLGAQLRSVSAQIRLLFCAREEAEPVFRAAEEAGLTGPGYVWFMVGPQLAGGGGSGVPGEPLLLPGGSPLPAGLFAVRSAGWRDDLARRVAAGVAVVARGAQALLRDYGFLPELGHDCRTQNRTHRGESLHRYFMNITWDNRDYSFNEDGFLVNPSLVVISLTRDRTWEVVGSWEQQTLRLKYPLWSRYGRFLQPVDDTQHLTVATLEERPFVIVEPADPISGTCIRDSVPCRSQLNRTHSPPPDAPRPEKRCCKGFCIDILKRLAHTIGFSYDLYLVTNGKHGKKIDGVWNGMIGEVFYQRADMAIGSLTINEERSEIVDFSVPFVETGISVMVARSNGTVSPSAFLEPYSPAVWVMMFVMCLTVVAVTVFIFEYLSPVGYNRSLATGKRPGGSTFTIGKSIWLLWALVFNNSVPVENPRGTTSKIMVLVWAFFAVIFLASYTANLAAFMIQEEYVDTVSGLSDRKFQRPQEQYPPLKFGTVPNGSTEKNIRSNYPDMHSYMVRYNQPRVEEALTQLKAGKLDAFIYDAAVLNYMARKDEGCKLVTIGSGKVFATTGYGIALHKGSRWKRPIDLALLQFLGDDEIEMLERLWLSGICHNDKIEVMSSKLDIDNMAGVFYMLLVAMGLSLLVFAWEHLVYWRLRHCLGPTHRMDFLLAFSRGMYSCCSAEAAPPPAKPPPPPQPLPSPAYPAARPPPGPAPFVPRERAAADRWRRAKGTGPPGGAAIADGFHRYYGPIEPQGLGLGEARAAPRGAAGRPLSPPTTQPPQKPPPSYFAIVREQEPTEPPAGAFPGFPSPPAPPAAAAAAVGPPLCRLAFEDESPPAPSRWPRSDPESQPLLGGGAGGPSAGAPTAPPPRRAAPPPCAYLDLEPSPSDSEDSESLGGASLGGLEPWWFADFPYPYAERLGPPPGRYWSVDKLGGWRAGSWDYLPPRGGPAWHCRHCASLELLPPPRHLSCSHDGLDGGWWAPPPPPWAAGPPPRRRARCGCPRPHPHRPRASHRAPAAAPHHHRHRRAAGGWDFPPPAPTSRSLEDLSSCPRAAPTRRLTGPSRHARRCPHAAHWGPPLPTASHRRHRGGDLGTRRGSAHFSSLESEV
UniProt Q14973, whole entry: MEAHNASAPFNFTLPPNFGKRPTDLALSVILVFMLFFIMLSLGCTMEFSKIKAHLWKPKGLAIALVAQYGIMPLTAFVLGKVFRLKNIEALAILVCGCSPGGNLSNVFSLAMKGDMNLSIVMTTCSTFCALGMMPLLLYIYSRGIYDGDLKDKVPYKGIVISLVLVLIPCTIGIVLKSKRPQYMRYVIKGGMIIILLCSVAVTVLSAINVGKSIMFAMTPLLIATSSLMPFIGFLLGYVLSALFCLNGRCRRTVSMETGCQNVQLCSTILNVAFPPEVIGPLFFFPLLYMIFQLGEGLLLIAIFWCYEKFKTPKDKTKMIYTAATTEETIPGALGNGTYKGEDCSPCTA
UniProt P19784, whole entry: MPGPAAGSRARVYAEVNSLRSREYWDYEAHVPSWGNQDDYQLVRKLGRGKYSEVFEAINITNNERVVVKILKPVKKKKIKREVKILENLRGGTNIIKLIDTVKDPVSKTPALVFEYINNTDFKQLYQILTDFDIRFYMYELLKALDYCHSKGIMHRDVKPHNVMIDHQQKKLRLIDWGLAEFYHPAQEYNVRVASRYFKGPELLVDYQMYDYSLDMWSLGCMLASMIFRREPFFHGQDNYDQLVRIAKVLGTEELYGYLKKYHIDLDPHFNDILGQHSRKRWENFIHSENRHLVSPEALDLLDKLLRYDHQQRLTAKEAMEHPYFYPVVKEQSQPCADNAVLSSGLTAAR
UniProt Q13133, whole entry, looked up: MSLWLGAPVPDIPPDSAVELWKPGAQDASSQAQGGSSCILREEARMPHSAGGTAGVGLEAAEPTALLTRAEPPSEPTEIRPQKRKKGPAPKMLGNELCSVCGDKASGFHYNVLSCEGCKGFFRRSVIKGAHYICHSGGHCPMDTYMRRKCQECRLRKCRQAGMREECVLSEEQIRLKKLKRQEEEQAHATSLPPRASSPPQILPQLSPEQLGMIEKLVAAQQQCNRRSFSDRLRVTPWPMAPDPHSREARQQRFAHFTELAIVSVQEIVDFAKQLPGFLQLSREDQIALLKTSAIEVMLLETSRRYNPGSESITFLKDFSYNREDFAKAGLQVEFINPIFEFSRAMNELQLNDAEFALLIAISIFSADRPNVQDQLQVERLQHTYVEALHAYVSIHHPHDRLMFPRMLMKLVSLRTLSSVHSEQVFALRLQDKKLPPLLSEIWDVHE
UniProt P17787, 26-502 limits assumed: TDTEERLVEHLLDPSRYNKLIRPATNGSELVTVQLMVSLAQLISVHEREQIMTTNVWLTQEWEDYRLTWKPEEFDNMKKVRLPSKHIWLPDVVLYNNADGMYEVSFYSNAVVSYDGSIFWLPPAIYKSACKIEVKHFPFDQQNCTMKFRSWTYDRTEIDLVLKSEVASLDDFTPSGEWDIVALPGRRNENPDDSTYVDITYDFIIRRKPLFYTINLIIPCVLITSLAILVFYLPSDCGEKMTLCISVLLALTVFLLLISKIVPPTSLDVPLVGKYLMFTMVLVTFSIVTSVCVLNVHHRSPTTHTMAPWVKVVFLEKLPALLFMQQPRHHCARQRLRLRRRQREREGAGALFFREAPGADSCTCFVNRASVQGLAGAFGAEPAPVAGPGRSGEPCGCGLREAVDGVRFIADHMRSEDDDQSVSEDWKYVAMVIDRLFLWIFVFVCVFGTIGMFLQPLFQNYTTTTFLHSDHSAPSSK
UniProt P43681, 29-627 limits assumed: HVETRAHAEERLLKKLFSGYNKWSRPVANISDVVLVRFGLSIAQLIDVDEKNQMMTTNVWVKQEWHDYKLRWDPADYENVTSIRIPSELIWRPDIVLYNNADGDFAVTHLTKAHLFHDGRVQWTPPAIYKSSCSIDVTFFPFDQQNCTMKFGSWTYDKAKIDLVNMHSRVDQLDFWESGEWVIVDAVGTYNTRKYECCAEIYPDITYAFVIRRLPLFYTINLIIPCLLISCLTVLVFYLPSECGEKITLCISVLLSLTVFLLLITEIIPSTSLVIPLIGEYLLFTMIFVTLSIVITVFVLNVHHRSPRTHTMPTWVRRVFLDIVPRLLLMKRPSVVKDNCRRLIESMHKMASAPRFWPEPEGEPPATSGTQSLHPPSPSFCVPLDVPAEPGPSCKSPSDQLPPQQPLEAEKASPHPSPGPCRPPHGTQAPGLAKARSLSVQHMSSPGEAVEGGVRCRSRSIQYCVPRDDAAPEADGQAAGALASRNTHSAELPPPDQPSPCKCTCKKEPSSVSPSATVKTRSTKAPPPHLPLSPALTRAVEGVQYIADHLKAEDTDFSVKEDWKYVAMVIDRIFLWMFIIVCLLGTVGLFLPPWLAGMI
UniProt P49841, whole entry: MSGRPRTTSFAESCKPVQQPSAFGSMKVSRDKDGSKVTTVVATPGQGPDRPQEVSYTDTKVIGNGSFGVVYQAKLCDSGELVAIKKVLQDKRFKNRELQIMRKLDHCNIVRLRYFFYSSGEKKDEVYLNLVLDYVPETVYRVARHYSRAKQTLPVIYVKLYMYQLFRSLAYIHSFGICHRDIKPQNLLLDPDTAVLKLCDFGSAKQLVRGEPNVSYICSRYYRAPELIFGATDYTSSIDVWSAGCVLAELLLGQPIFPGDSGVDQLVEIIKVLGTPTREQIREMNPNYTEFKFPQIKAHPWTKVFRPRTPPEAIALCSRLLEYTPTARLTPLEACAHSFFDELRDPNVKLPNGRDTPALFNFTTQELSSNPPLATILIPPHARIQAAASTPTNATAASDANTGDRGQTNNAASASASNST

`CC1(C)S[C@@H]2CS[C@@H](CS)N2[C@H]1C(=O)O` — result for “k-2 (E*I breakdown)”: 7e-10 ± 1e-05 s⁻¹ (VIM-2 (Escherichia coli, UniProt Q5U7L7, R205L); slow-binding inhibitor; Klebsiella pneumoniae; added: nitrocefin).
`O=c1oc(-c2ccccn2)ns1` has a kobs/[I] of 0.2 M⁻¹ s⁻¹ (PSMB5 (Homo sapiens, UniProt P28074); inactivation; human PA28-activated proteasome).
For `CCN(CC)c1ccc2c(O)c(C=Nc3ccc(CC(=O)NNc4c5c(nc6ccccc46)CCCC5)cc3)c(=O)oc2c1`, the efficacy was -61.9 ± 4.45% (Cholinesterase (BCHE, Homo sapiens, UniProt P06276); enzyme activity; Triton-containing buffer).
For `COc1ccc(OC[C@H]2c3cccn3CC(=O)N2Cc2cccc(F)c2)cc1`, the charge transfer was 4.7 ± 2.7 fold (Glutamate receptor ionotropic, NMDA 2D, with GluN1 (Rattus norvegicus, UniProt Q62645); ion current, whole-cell patch clamp; HEK293T cells, transfected; 10 µM, added: glutamate for 10 ms; reference: baseline).
`CC(CCC(=O)N(CCNC(=O)C(F)(F)F)CC(=O)O)[C@H]1CC[C@H]2[C@@H]3[C@H](O)C[C@@H]4C[C@H](O)CC[C@]4(C)[C@H]3C[C@H](O)[C@]12C` (stereo partly drawn) gave a Km of 2.19 ± 0.63 µM (SLC10A1 (Homo sapiens, UniProt Q14973); substrate).
`CCN1CCN(Cc2ccc(NC(=O)c3ccc(C)c(/C=C/c4cnc5[nH]ccc5c4OC)c3)cc2C(F)(F)F)CC1` — result for “log2 fold change”: 0.167 log2 (CSNK2A2 (Homo sapiens, UniProt P19784); inhibitor, cell-based kinome screen; 5 µM; reference: vehicle).
`CC[C@H](C)[C@H]1O[C@]2(CC[C@@H]1C)C[C@@H]1C[C@@H](C/C=C(\C)[C@@H](O[C@H]3C[C@H](OC)[C@@H](O[C@H]4C[C@H](OC)[C@@H](O)[C@H](C)O4)[C@H](C)O3)[C@@H](C)/C=C/C=C3\CO[C@@H]4[C@H](O)C(C)=C[C@@H](C(=O)O1)[C@]34O)O2` — result for “coactivator recruitment efficacy”: 3.57 ± 2.67% (NR1H3 (Homo sapiens, UniProt Q13133); 0.4 µM).
The current response of `CCN(CC)C(=O)Oc1ccc(C(=O)Nc2cccc3cc[nH]c23)cc1` is reported as 97.3 ± 3.9% (Neuronal acetylcholine receptor; alpha4/beta2 (Homo sapiens, UniProt P17787+P43681); modulator, two-electrode voltage clamp; Xenopus oocytes; 20 µM, added: 10 µM acetylcholine; reference: agonist alone).
`CC#C/C(=N\OC[C@H]1COCCN1)c1ccc2ncnc(Nc3ccc(OCc4cccc(F)c4)c(Cl)c3)c2c1` has an inhibition of 25.6% (GSK3B (Homo sapiens, UniProt P49841); kinase activity; 10 µM).
